{"data": "Measured values pooled from the literature", "target": "Muscarinic acetylcholine receptor M3 (CHRM3, Homo sapiens, UniProt P20309)", "note": "Compare with care: the assays were run in different laboratories.", "UniProt P20309, sequence (whole entry, looked up)": "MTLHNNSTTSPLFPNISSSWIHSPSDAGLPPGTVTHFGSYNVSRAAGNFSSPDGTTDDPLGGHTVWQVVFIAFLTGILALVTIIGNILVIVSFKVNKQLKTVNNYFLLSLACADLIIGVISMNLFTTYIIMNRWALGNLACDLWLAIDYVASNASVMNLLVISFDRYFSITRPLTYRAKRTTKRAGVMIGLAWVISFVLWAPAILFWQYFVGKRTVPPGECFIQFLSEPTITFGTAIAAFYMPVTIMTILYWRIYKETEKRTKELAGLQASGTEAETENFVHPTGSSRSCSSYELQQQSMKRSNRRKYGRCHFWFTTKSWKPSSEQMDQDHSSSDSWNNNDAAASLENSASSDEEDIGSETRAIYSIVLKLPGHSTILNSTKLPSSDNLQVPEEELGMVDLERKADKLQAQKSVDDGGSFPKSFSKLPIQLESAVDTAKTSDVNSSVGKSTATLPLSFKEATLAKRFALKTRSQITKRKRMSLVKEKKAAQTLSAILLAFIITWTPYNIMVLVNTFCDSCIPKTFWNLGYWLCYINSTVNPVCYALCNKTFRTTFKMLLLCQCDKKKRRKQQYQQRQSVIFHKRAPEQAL"}
{"Compound": "Cc1sc2c(c1C)C(c1ccc(Cl)cc1)=NC(CC(=O)OC(C)(C)C)c1nnc(C)n1-2 (centres unmarked)", "assay": "ligand displacement, radioligand", "setting": "1 µM", "quantity": "remaining binding", "value": "104%"}
{"Compound": "Cc1cc(-c2ccc3ccccc3c2)nnc1NCCN1CCN(C)CC1", "assay": "antagonist", "setting": "10000 nM", "how to read": "relative to: control", "quantity": "activity", "value": "0%"}
{"Compound": "C/C(=N\\OCCCN1CCCCC1)c1ccc(C(F)(F)F)cc1", "assay": "antagonist, IP-One", "setting": "10 µM", "quantity": "inhibition", "value": "34.4%"}
{"Compound": "CCCO[C@H]1[C@H](O)[C@@H](N)[C@@H](O[C@H]2[C@H](O[C@@H]3O[C@H](CO)[C@@H](O[C@H]4O[C@@H](CN)[C@@H](O)[C@H](O)[C@H]4N)[C@H]3O)[C@@H](O)[C@H](N)C[C@@H]2N)O[C@@H]1CO", "assay": "radioligand binding", "setting": "10 µM, 1% DMSO", "quantity": "specific binding", "value": "20%"}
{"Compound": "CCc1nnc(-c2c(OC)cc(-c3cnc4cc(-c5cnn(C)c5)ccn34)cc2OC)o1", "assay": "antagonist radioligand, radioligand binding", "setting": "10 µM, SafetyScreen44 M3", "quantity": "inhibition", "value": "3%"}
{"Compound": "Cc1cc(Nc2nc(C[C@@]3(C(=O)O)CCN(Cc4cccc(Cl)c4F)[C@H](C)C3)cc(C)c2F)[nH]n1", "assay": "agonist", "setting": "10 µM", "quantity": "activation", "value": "-1.04%"}
{"Compound": "N[C@H](C(=O)N1CCCC1)C1CCN(c2nccc3c(-c4ncc(Cl)cc4Cl)cccc23)CC1", "assay": "functional response, antagonist", "setting": "10 µM", "quantity": "inhibition", "value": "37%"}
{"Compound": "CN[C@@H]1[C@H](O)[C@H](NC)[C@H]2O[C@]3(O)[C@H](O[C@@H]2[C@H]1O)O[C@H](C)C[C@H]3NC(=O)Cc1cc(Cl)ccn1", "assay": "ligand displacement, radioligand", "setting": "10 µM", "quantity": "inhibition", "value": "19%"}
